{"data": "Measurements from different studies", "note": "Numbered parts are unrelated; each lists some results of a single study."}
{"data": "Block 1", "target": "Sal-like protein 4, full length isoform B (SALL4, Homo sapiens, UniProt Q9UJQ4-2, residues 1-616)", "technique": "universal PBM", "molecule type": "double-stranded DNA, one strand shown", "matrix": "in vitro", "concentration": "not given", "setting": "8-mer, flanks averaged, mean of replicates", "direction": "higher = stronger binding", "Construct (chain)": "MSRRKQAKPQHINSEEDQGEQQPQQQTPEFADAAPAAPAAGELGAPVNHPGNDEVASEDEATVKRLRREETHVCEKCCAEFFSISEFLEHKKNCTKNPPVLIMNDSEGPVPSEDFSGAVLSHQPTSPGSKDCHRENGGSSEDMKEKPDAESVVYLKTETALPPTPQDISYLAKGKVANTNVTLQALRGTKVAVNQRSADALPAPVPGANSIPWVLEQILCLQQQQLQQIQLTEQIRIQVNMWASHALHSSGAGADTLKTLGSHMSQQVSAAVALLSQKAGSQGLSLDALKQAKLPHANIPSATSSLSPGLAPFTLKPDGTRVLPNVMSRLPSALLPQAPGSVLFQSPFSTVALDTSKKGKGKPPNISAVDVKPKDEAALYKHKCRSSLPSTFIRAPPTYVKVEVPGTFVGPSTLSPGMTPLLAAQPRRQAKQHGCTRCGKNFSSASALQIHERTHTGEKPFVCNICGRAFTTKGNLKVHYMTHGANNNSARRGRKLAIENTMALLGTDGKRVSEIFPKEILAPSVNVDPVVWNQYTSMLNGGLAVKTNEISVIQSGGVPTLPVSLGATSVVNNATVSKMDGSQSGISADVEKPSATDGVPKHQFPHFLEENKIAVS"}
{"Sequence": "ACAGTGAT", "E-score": 0.0449}
{"Sequence": "ATTCCGCA", "E-score": -0.0644}
{"Sequence": "CCGTTACC", "E-score": -0.0112}
{"Sequence": "TAATCTCA", "E-score": 0.17}
{"Sequence": "GACCGCAA", "E-score": -0.142}
{"Sequence": "CTCAGTCA", "E-score": -0.0656}
{"Sequence": "GATGGTCA", "E-score": -0.0782}
{"Sequence": "TAAGAGGA", "E-score": 0.0837}
{"Sequence": "AGATGCGC", "E-score": -0.0815}
{"Sequence": "CACCCCAG", "E-score": -0.271}
{"Sequence": "CACCTTAG", "E-score": -0.157}
{"Sequence": "AGCACCAG", "E-score": -0.116}
{"Sequence": "AGGCTGTA", "E-score": 0.139}
{"Sequence": "AGAGCGTA", "E-score": -0.0679}
{"Sequence": "CGTTTAAG", "E-score": 0.0297}
{"Sequence": "CTTCTGAA", "E-score": 0.122}
{"Sequence": "CTGTTTAC", "E-score": 0.208}
{"Sequence": "ACTCGTCC", "E-score": -0.099}
{"Sequence": "CAACAACC", "E-score": -0.0253}
{"Sequence": "GCCCAGCC", "E-score": -0.335}
{"Sequence": "CTCCTATC", "E-score": -0.0282}
{"Sequence": "GCCCTACA", "E-score": -0.13}
{"Sequence": "AACTGGCC", "E-score": -0.194}
{"Sequence": "ATCACCTA", "E-score": -0.0538}
{"data": "Block 2", "target": "Fragile X messenger ribonucleoprotein 1, C-terminal low-complexity region (Fmr1, Mus musculus, UniProt P35922)", "technique": "RNA Bind-n-Seq", "molecule type": "RNA", "matrix": "in vitro", "concentration": "200 nM", "setting": "whole 134-nt RNA, ends assumed", "together with": "150 mM KCl", "baseline": "input library", "direction": "higher = stronger binding"}
{"Sequence": "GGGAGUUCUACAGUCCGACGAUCGUCCUGUGCUACACAUCGUAUGUACCGAAUCGGGUUUUUGGGAAAGGGUUUUUUUGGGAAAGUAUUAUGUUACGCCGUUCGGAUCUGCACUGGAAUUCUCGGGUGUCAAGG", "log2 enrichment": -0.0797}
{"Sequence": "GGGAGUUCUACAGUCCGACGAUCUGGGAGGUGGAUUUUGUUUAUUUUUUUAGCUCAUUUCAAGGGGUGGGAAUUUUUUUUUAAUAUGUGUCAUGAAUAAAGUUGUUUUUGAAAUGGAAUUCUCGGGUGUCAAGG", "log2 enrichment": 0.227}
{"Sequence": "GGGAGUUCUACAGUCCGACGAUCAAGUCCUGUGCUACACAUCGUAUGUACCGAAUCGGGUUUUGGUUUUGGGUUUUGGGAAAGUAUUAUGUUACGCCGUUCGGAUCUGCACUUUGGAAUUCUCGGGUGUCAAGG", "log2 enrichment": -0.453}
{"Sequence": "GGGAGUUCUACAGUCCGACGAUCUUCCUUUCCGUUGUGUGUUUUAAAGGUGUGUGCCCUCUUCCUGAUUCUGGAGAAAAAUGCCGGUCCGGAAGCAAGGUGAGAGUUUAUUCCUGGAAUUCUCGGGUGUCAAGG", "log2 enrichment": 0.387}
{"Sequence": "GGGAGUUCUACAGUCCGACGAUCUUCCUCAAGUCCUGUGCUACACAUCGUAUGUACCGAAUCGGGUGGUGGUGGAAAGUAUUAUGUUACGCCGUUCGGAUCUGCACUUCCAGCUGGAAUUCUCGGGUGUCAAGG", "log2 enrichment": -0.11}
{"Sequence": "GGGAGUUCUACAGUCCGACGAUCGUCCUGUGCUACACAUCGUAUGUACCGAAUCGGGUUUUUUUGGGUGGGUUUUUUUGGGAAAGUAUUAUGUUACGCCGUUCGGAUCUGCACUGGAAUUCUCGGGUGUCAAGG", "log2 enrichment": 0.484}
{"Sequence": "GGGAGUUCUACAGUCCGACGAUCCAAGUCCUGUGCUACACAUCGUAUGUACCGAAUCGGUUUGGGGUUUGGGUUUGGGGAAAGUAUUAUGUUACGCCGUUCGGAUCUGCACUUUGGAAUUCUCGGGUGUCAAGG", "log2 enrichment": 0.0561}
{"Sequence": "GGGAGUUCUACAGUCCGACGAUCCUGUGCUACACAUCGUAUGUACCGAAUCGGCCCCCCCGGGGCCCCCCCGGCCCCCCCGGGGAAAGUAUUAUGUUACGCCGUUCGGAUCUGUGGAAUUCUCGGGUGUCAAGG", "log2 enrichment": -0.799}
{"Sequence": "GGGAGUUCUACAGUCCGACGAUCAGUCCUGUGCUACACAUCGUAUGUACCGAAUCGGGGUUUUGGGGUUUUGGGUUUUGGAAAGUAUUAUGUUACGCCGUUCGGAUCUGCACUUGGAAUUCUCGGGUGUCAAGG", "log2 enrichment": 0.104}
{"Sequence": "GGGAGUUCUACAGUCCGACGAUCAGUCCUGUGCUACACAUCGUAUGUACCGAAUCGGGGAAAAAGGGGAGGGGUUUGGGGAAAGUAUUAUGUUACGCCGUUCGGAUCUGCACUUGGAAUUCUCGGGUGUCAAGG", "log2 enrichment": 0.385}
{"data": "Block 3", "target": "Prothrombin, mature alpha-thrombin (F2, Homo sapiens, UniProt P00734)", "technique": "aptamer microarray, sandwich", "molecule type": "DNA with 2'F-ANA", "matrix": "in vitro", "concentration": "200 nM", "setting": "whole 15-mer aptamer, many near background", "together with": "Cy3 exosite-II aptamer, 400 nM", "direction": "higher = stronger binding", "sequence": "GGTTGGTGTGGTTGG"}
{"Modification": "2'F-ANA at 1 2 3 4 10 11 14", "mean fluorescence intensity": "52.9 a.u."}
{"Modification": "2'F-ANA at 1 2 3 6 9 10 11 12 14", "mean fluorescence intensity": "90.9 a.u."}
{"Modification": "2'F-ANA at 1 3 5 8 10 13 14 15", "mean fluorescence intensity": "49.5 a.u."}
{"Modification": "2'F-ANA at 1 4 7 8 9 14", "mean fluorescence intensity": "63.7 a.u."}
{"Modification": "2'F-ANA at 3 4 6 8 9 10 11 12 13 15", "mean fluorescence intensity": "187 a.u."}
{"Modification": "2'F-ANA at 1 2 3 4 5 8 10 12 13 15", "mean fluorescence intensity": "176 a.u."}
{"Modification": "2'F-ANA at 3 7 8 9 10 11 13", "mean fluorescence intensity": "664 a.u."}
{"Modification": "2'F-ANA at 2 4 5 6 10 13 14 15", "mean fluorescence intensity": "48 a.u."}
{"Modification": "2'F-ANA at 1 2 3 4 6 10 11 15", "mean fluorescence intensity": "58.2 a.u."}
{"Modification": "2'F-ANA at 2 4 5 8 9 10 12 14", "mean fluorescence intensity": "62.4 a.u."}
{"Modification": "2'F-ANA at 1 3 5 6 10 12 14", "mean fluorescence intensity": "47.9 a.u."}
{"Modification": "2'F-ANA at 2 4 7 10 13 14", "mean fluorescence intensity": "62.6 a.u."}
{"Modification": "2'F-ANA at 1 2 6 7 8 9 10 12", "mean fluorescence intensity": "67.5 a.u."}
{"Modification": "2'F-ANA at 1 2 3 4 7 8 9 11 13 14 15", "mean fluorescence intensity": "62.5 a.u."}
{"Modification": "2'F-ANA at 1 5 6 9 11 12 15", "mean fluorescence intensity": "86.1 a.u."}
{"Modification": "2'F-ANA at 1 3 4 7 8 9 10 11", "mean fluorescence intensity": "78.9 a.u."}
{"Modification": "2'F-ANA at 2 9 11 12 13 15", "mean fluorescence intensity": "490 a.u."}
{"Modification": "2'F-ANA at 3 4 8 9 15", "mean fluorescence intensity": "653 a.u."}
{"Modification": "2'F-ANA at 1 2 3 6 8 10 11 12 14", "mean fluorescence intensity": "50.3 a.u."}
{"Modification": "2'F-ANA at 1 3 4 8 9 10 13 15", "mean fluorescence intensity": "56.6 a.u."}
{"Modification": "2'F-ANA at 1 4 6 7 11 12 13", "mean fluorescence intensity": "152 a.u."}
{"Modification": "2'F-ANA at 1 2 5 6 8 9 10 11 12 15", "mean fluorescence intensity": "53.9 a.u."}
{"Modification": "2'F-ANA at 3 4 6 11 14", "mean fluorescence intensity": "477 a.u."}
{"Modification": "2'F-ANA at 5 6 7 8 9 11", "mean fluorescence intensity": "70.7 a.u."}
{"Modification": "2'F-ANA at 2 6 7 8 11 13 14 15", "mean fluorescence intensity": "130 a.u."}
{"data": "Block 4", "target": "Histone acetyltransferase KAT6A, both winged helices, GST fusion (KAT6A, Homo sapiens, UniProt Q92794, residues 1-181)", "technique": "protein binding microarray", "molecule type": "double-stranded DNA, one strand shown", "matrix": "in vitro", "concentration": "not given", "setting": "8-mer, flanks averaged, mean of 2 arrays, mostly near background", "baseline": "not given", "direction": "higher = stronger binding", "Construct (chain)": "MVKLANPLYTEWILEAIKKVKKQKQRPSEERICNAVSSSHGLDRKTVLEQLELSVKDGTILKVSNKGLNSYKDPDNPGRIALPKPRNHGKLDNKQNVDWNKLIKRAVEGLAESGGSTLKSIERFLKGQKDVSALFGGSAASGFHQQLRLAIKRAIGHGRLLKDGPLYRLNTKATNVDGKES"}
{"Sequence": "AGAGACGA", "E-score": 0.0238}
{"Sequence": "CCCGTGCC", "E-score": 0.203}
{"Sequence": "GCTTTAGA", "E-score": -0.128}
{"Sequence": "AGCGAAAG", "E-score": 0.0515}
{"Sequence": "CTCAGCAA", "E-score": 0.0462}
{"Sequence": "CACGACTC", "E-score": -0.247}
{"Sequence": "GTGGTGTA", "E-score": -0.129}
{"Sequence": "CCATGCTC", "E-score": -0.172}
{"Sequence": "CTTTCAAA", "E-score": 0.0604}
{"Sequence": "CGCCCAAG", "E-score": 0.034}
{"Sequence": "CTTTATAC", "E-score": 0.0902}
{"Sequence": "GATTTCGA", "E-score": 0.0934}
{"Sequence": "CCCGCCGA", "E-score": 0.293}
{"Sequence": "ATCCTGAA", "E-score": -0.134}
{"Sequence": "TATGCCAA", "E-score": -0.147}
{"Sequence": "AACTGTAA", "E-score": 0.0478}
{"Sequence": "CGGCTACA", "E-score": 0.154}
{"data": "Block 5", "target": "TAR DNA-binding protein 43, full length, His tag (TARDBP, Homo sapiens, UniProt Q13148, residues 1-414)", "technique": "RNA Bind-n-Seq", "molecule type": "RNA", "matrix": "in vitro", "concentration": "20 nM", "setting": "6-mer, flanks averaged, single round", "together with": "150 mM LiCl", "baseline": "input library", "direction": "higher = stronger binding"}
{"Sequence": "UGGGCA", "6-mer enrichment (R)": 1.05}
{"Sequence": "ACCUUU", "6-mer enrichment (R)": 0.993}
{"Sequence": "UCAGGC", "6-mer enrichment (R)": 0.864}
{"Sequence": "UAGAGC", "6-mer enrichment (R)": 0.946}
{"Sequence": "GCGCAC", "6-mer enrichment (R)": 0.965}
{"Sequence": "GCGAGC", "6-mer enrichment (R)": 0.977}
{"Sequence": "GCAUGA", "6-mer enrichment (R)": 1}
{"Sequence": "UCAAUA", "6-mer enrichment (R)": 0.894}
{"Sequence": "CCCGGU", "6-mer enrichment (R)": 0.991}
{"Sequence": "GAGACG", "6-mer enrichment (R)": 0.992}
{"Sequence": "CGGUGU", "6-mer enrichment (R)": 1.23}
{"Sequence": "CUCUAG", "6-mer enrichment (R)": 0.833}
{"Sequence": "CUCGCA", "6-mer enrichment (R)": 0.817}
{"Sequence": "GAUCUC", "6-mer enrichment (R)": 0.834}
{"Sequence": "GCGCCC", "6-mer enrichment (R)": 1.07}
{"Sequence": "CGUAUG", "6-mer enrichment (R)": 1.1}
{"Sequence": "CGACGU", "6-mer enrichment (R)": 0.883}
{"Sequence": "CGAGUG", "6-mer enrichment (R)": 1.19}
{"Sequence": "CCGUUU", "6-mer enrichment (R)": 1.02}
{"Sequence": "ACGGUA", "6-mer enrichment (R)": 0.891}
{"Sequence": "UCACGA", "6-mer enrichment (R)": 0.786}
{"Sequence": "UGGAGA", "6-mer enrichment (R)": 1.07}
